Experimental data pooled from the literature.
Numbered parts are unrelated; each lists some results of a single study. Substitutions count along the parent as printed.

Set 1
Target: CCND2, cyclin fold, Cln2 fusion (human)
Technique: yeast growth competition, sequencing
Matrix: yeast
Notes: weak parent motif
Reference: not given
Direction: higher = stronger binding
Starting sequence: DBF4B docking peptide (human); LGYLYLLLTQSLW; partner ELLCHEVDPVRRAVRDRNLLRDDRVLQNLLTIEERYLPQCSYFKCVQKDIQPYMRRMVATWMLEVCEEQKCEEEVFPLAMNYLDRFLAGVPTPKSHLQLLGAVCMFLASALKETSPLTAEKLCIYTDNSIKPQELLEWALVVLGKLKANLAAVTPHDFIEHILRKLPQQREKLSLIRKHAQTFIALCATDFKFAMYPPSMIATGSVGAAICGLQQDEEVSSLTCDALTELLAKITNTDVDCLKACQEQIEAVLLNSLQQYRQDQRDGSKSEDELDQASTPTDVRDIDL
| Substitution | normalised enrichment score |
| --- | --- |
| LAYLYLLLTQSLW [G2A] | -0.409 |
| LGYLYALLTQSLW [L6A] | -0.809 |
| LGYLYLLATQSLW [L8A] | -0.0416 |

Set 2
Substitution: V76P
Target: ABI1, truncated, D143A, DHFR fusion (Arabidopsis thaliana)
Technique: DHFR PCA, deep sequencing
Matrix: yeast
Notes: methotrexate growth selection, single substitutions
Reference: wild-type fitted maximum
Direction: higher = stronger binding
Starting sequence: PYL1, truncated, DHFR fusion (Arabidopsis thaliana); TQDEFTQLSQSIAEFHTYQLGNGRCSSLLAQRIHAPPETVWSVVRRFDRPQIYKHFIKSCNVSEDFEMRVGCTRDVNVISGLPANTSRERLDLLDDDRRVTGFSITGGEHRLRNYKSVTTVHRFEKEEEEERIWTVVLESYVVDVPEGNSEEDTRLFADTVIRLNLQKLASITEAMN
| conditions | relative binding score [%] |
| --- | --- |
| with: (+)-ABA 1.4 µM | 3.6 |
| with: (+)-ABA 58 µM | 9.74 |
| with: (+)-ABA 0.0091 µM | -1.66 |

Set 3
Target: Centromere-binding protein 1, full length, N-terminal tag (CBF1, Saccharomyces cerevisiae, UniProt P17106, residues 1-351)
UniProt P17106, sequence (whole entry, looked up): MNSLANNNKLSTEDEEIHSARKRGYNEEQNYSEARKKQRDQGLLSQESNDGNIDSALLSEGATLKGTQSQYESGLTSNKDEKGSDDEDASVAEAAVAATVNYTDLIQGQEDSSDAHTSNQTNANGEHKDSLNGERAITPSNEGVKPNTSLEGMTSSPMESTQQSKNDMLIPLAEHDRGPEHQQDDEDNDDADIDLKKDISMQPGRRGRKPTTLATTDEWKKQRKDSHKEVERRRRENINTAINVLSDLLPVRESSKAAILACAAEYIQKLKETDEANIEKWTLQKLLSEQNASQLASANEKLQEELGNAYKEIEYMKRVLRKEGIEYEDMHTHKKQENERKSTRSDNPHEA
Technique: protein-binding microarray
Form: double-stranded DNA, one strand shown
Matrix: in vitro
Tested at: 0.8 µM
Notes: whole 60-bp probe, no competitor
Direction: higher = stronger binding
Shared flanks, not repeated: … GTCTTGATTCGCTTGACGCTGCTG
| Sequence | fluorescence intensity [a.u.] |
| --- | --- |
| CTAACATCAAAACTACACGTTTGGGTGGTACGGTTC | 502 |
| GAATCGCTATATTGTCACACGCATTTGAATTAGTAG | 687 |
| CTAAAGAAACGAATTCACCTGATTGCAGCTGTATTC | 610 |
| CTAGTGTAGATAGGTGACGCTAGAGCCGTATATTTC | 511 |
| GAAGGCTGATGACTCCTCATGATAACTCATGTGTAG | 531 |
| GAAGTAGTAGACCTACACGGGATGAAGGATATCTAG | 514 |

Mixed results
| Substance | target | test | system | conditions | scale | endpoint | value |
| --- | --- | --- | --- | --- | --- | --- | --- |
| PhoQ, residues 284 288 289 292 302 303 TASMAF | PhoP, residues 12 14 15 18 19 NQAHL (Escherichia coli, UniProt P23836) | Sort-seq, item: YFP reporter | E. coli | PhoQ-PhoP variant library, with: 10 µM Mg2+ | reference: high Mg2+ state, higher = stronger signaling | fold induction | 12.8 |

Excerpt of the above (set 3):
| Sequence | fluorescence intensity [a.u.] |
| --- | --- |
| CTAACATCAAAACTACACGTTTGGGTGGTACGGTTC | 502 |
| GAATCGCTATATTGTCACACGCATTTGAATTAGTAG | 687 |
